Measured values of several laboratories.
Numbered parts are unrelated; each lists some results of a single study. Substitutions count along the parent as printed.

Sample 1 — technique: protein binding microarray; form: double-stranded DNA, one strand shown; matrix: in vitro; concentration: not given; relative to: not given; direction: higher = stronger binding
Target: Histone acetyltransferase KAT6A, winged helix 1, GST fusion (KAT6A, Homo sapiens, UniProt Q92794, residues 1-85)
Notes: 8-mer, flanks averaged, mean of 2 arrays, mostly near background
Residues (chain): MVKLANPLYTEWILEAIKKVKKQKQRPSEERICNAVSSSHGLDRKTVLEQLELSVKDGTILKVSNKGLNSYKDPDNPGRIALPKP
Sequence	E-score
AATGTTAC	0.105
CCATTGTA	-0.00428
AAATAGTA	-0.0397
CTTAGAGA	-0.151
CTTACAAC	-0.179
AAAGGGCC	0.0567
CTTAAAGA	-0.165
GTGTTCTA	0.0452
GATTCACC	0.102
CCCCTCAC	-0.0481
AATTCTAG	-0.275
GCTCAAAA	-0.0431
ACGAAGAG	0.0158
GTTTACCA	-0.126
CCGAAAAC	0.0135
CAACTTGG	-0.109
GAAAAGAA	-0.12
AAGCCACT	-0.2
GTAGTAAC	0.0426
CCTTGGAC	-0.0232
CAGCGTGA	-0.118
AATTTAGA	-0.182
CAGGTTAC	0.0281
CGCCCGCA	0.375
AGAATGTG	-0.135

Sample 2 — technique: aptamer microarray, sandwich; form: DNA with 2'F-ANA; matrix: in vitro; concentration: 200 nM; added: Cy3 exosite-II aptamer, 400 nM; direction: higher = stronger binding; sequence: GGTTGGTGTGGTTGG
Target: Prothrombin, mature alpha-thrombin (F2, Homo sapiens, UniProt P00734)
Notes: whole 15-mer aptamer, many near background
Modification	mean fluorescence intensity
2'F-ANA at 6 7 9 12 13 14 15	170 a.u.
2'F-ANA at 1 3 6 7 9 10 11 12 14	60.7 a.u.
2'F-ANA at 1 3 4 5 6 9 11 12 14	47 a.u.
2'F-ANA at 1 2 6 7 10 15	53 a.u.
2'F-ANA at 4 5 7 9 10 11 12 13	55 a.u.
2'F-ANA at 1 3 11 12 13 14	112 a.u.
2'F-ANA at 2 5 7 9 12 13 15	91.7 a.u.
2'F-ANA at 8 11 12 13	713 a.u.
2'F-ANA at 1 2 3 4 6 7 10 15	65.3 a.u.
2'F-ANA at 1 2 8 9 10 12 13 14	50.8 a.u.
2'F-ANA at 1 4 5 7 8 9 11 14 15	56.5 a.u.
2'F-ANA at 1 2 3 5 8 10 11 13 15	48.8 a.u.
2'F-ANA at 3 4 8 9 11	563 a.u.
2'F-ANA at 3 5 6 7 8 9 11 15	100 a.u.
2'F-ANA at 1 2 3 8 10 13 15	130 a.u.
2'F-ANA at 2 3 4 5 6 10 11 12 13	48.5 a.u.
2'F-ANA at 1 2 5 6 7 9 11 12 14 15	48.7 a.u.
2'F-ANA at 2 3 4 5 8 11 12 13	119 a.u.
2'F-ANA at 1 3 5 6 9 10 13 15	45.4 a.u.
2'F-ANA at 2 4 7 8 10 11 12 14	147 a.u.
2'F-ANA at 1 2 3 8 11 12 13 14	90.6 a.u.
2'F-ANA at 1 2 4 6 8 9 12 13 14	56.5 a.u.

Sample 3 — technique: RNA Bind-n-Seq; form: RNA; matrix: in vitro; concentration: 365 nM; relative to: no-protein control; direction: higher = stronger binding
Target: RNA binding protein fox-1 homolog 2, RRM domain, GST-SBP tag (RBFOX2, Homo sapiens, UniProt O43251-10, residues 100-194)
Notes: natural RNA segment, single round, ends assumed
Construct (chain): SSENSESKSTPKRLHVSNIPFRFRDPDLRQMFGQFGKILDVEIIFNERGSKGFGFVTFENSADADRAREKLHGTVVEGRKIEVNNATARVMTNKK
Sequence	RBNS enrichment (R)
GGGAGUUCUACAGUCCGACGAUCGAGCCAUACCGACCAUCGUCCAGCCCUCCUACGCAGAUGCUGUCACUGGCAGAGCACAGCCCACGGGGAUCACAGCGUUUCAGGAACGUUGCCACACCAAUCAGAGAGCCUGGAAUUCUCGGGUGCCAA	0.343
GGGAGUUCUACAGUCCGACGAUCGUUUGUGCAUGAUUGUUUUUAUAUUUCUCAUCAACUACACAACUUUUCCAAGUUAUAAAGUCUACUGCAGCAUUCAUGUGUAGCGGGGAAGCCUACGUAAGCAAACGACUUGGAAUUCUCGGGUGCCAA	4.18
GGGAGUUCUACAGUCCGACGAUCAGAAAUAACUUUGAAGGGAAAAAAGUCAUUAGCUUAGAAUAUGAAGCAUAUCUACCCAUGGCGGAAAAUGAAGUCAGAAAGAUUUGUAGUGACAUUAGGCAGAAAUGGCCUGGAAUUCUCGGGUGCCAA	0.641
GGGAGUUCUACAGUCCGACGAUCCACAGCUGUGGAUGCCAUGAAGAAGCCGUGGACAUUCUUGGUGGGUGAAGCCCUAGACGAUGGAAUCCUACCAAGCUGAACGUCGGCUUCUAUCCAUAUGCUAUCGAGUAUGGAAUUCUCGGGUGCCAA	0.32
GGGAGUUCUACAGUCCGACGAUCCCUUUCUUUGCCAUGAGGCCAUGAGGCCCGCUUCAUCCUUUUCUAUUUCCCUAGAACCUUAAUGGUAGAAGGAAUUGCAAAGAAUCAAGUCCACCCUUCUCAUGUGACAGUGGAAUUCUCGGGUGCCAA	0.266
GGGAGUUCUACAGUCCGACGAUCAACGAGAAGAGAUGCCACAGUGUAUCGUGUCUCUAGUUGUAUUGUAUACCUGCUUAACAUCUGCGACAUUUCUCUCCCAAGUCAUUUGCCCCUUCCCGGAAUUUAAACAAUGGAAUUCUCGGGUGCCAA	0.465
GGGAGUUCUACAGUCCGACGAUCAAGGUUAUUGUGGGAAACUGAGCUAAAGGAGUUAGCAUCUUUAUUUUUGUAUCAAAAAUAAAGGUUAUUUUGAAAUUAUUAGGAUUUUUACACAAUUCUGAAAUCUGUUGUGGAAUUCUCGGGUGCCAA	0.47
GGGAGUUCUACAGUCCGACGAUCUUAAUCAGUGUGAUUAAUGCAGCACCCAUUGCCCCGGGAACCGUUUCUGCUGUACUAUCUGGAUACUAAAAUGUUACGGAAGUAGCUCUUUGUUCUCCCUCACUCUGCCCUGGAAUUCUCGGGUGCCAA	0.478
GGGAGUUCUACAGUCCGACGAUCUCGAAUAGAGAAGGGGAAACUCCUUGAAUUUCUAGGUUUAAAAAGGAACUUUUAAAUUCCUUAAUGUUAAUAUUAAUGUUCAUGUUAAUGUCCUAAGCUGGCCAUUAACAUGGAAUUCUCGGGUGCCAA	0.884
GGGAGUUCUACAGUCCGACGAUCGAAAGCUAAAAUGGUGGUCUUCUCCACCAGCCCCUCACAGGCUUGGGGGUUUUCAAUGUGAAACACAUGCCAGUUUUUAAAAUGCUGCUUUGUCCAGGUGAGAACAUCCAUGGAAUUCUCGGGUGCCAA	0.317
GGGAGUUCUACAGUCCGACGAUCUGCUGCUCCUCUAGGCCUCACUCAACAACCAAGCGCCUGGAGGACGGGACAGAUGGACAGACAGCCACCCUGAGAACCCCUCUGGGAAAAUCUAUUCCUGCCACCACUGGUGGAAUUCUCGGGUGCCAA	0.277
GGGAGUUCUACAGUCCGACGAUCAAGCAUAUGAUAUUGGUUUUAAUAUAUUUACCAAAAGUACUAUUGCUUGGAUAUAAAAUCACUGAGCUGUUUCCGGUUCUCUCUAAGUUUGGGAAUCCUAUGUGUAUUUAUGGAAUUCUCGGGUGCCAA	0.506

Sample 4 — technique: DHFR PCA, deep sequencing; matrix: yeast; added: (+)-ABA 0 µM; relative to: wild-type fitted maximum; direction: higher = stronger binding
Target: ABI1, truncated, D143A, DHFR fusion (Arabidopsis thaliana)
Notes: methotrexate growth selection, single substitutions
Starting sequence: PYL1, truncated, DHFR fusion (Arabidopsis thaliana); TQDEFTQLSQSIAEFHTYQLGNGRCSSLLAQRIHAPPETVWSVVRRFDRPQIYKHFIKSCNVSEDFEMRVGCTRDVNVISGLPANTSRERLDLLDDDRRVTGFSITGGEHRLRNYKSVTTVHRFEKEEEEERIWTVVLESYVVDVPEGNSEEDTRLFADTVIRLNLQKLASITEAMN
Variant	relative binding score
R45S	0.731%
L164Y	-7.24%
N149M	57.5%
E139H	5.27%
F103T	-3.01%
Y115G	3.96%
S42Q	30.5%
E14V	2.61%
E127A	30.9%
S104L	-5.31%
L28Y	3.53%
Y115M	4.57%
R132H	25%

Sample 5 — technique: protein-binding microarray; form: double-stranded DNA, one strand shown; matrix: in vitro; concentration: 250 nM; notes: 60-bp whole probe; added: salmon DNA 0.4 mg/ml; relative to: random background probes; direction: higher = stronger binding; shared flanks, not repeated: GCCTAGCAC … GTCTTGATTCGCTTGACGCTGCTG
Target: Interferon regulatory factor 7, full length, phosphomimetic (IRF7, Homo sapiens, UniProt Q92985, residues 1-503, S101K/S471D/S472D/S475D/S476D/S477D/S483D/S484D/S487D)
Chain of UniProt Q92985 (whole entry, unmodified, looked up): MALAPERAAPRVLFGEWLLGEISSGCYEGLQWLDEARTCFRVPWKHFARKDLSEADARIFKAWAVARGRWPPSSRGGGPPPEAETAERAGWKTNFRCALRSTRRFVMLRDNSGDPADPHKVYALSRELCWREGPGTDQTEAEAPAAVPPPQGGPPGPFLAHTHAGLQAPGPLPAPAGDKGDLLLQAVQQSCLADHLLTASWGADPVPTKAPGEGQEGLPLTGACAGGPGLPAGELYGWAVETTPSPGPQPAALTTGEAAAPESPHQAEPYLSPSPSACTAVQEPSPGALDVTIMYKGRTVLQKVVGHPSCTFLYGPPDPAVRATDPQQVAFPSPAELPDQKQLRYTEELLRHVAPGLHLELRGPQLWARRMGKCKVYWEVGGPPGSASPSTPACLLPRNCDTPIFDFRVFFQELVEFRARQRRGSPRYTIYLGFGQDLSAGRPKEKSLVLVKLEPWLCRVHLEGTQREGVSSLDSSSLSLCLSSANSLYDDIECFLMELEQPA
Sequence	log fluorescence [z-score]
AGGTTCTACTCCGTTAGTTGGTGCTAG	0.599
AGGAGTATTTATCTGCAAAGGTGCTAG	-0.204
TTAGATATCAGTATAGATTAGTGCTAG	-0.0998
GACGGTAGCGGGTTTCGGGACGTGCTA	1.4
TTTCTTCTAGACTTCTCCATGTGCTAG	1.45
TTCTATGTCTGTTTTTGCTTGTGCTAG	0.419
GACGAGATCGGGTATCGAGACGTGCTA	0.181
TTAGATTTGAGTCTCGATTAGTGCTAG	1.9
TTGTGTTGCTGTTTGAGGAAGTGCTAG	0.293
TCAGGCCTCTTGCTCAGACTGTGCTAG	-0.58
GTCGGTTTCCTTCTCCTGACGTGCTAG	3.99
GAAGTAATTTCAAACCACAGGTGCTAG	-0.362
TCAGCCATCAATATCTGACTGTGCTAG	-0.596
GACGGCTTCGGTTCCGGGACGTGCTAG	0.659
ATGAGACTGTCACATCCCTGGTGCTAG	-0.303
TTAGAATTCGGGTTTCGATTAGTGCTA	7.46
GACGAACTGAGTATCGAGTCGTGCTAG	0.509
TCACATATACACATCTTACTGTGCTAG	0.928
GTGCCTTTATATACCTGAATGTGCTAG	0.975
TTAGGTCTCGTTATCGGTTAGTGCTAG	3.22
TCATTTCTCCTTTGTAAACTGTGCTAG	2.94

Excerpt of the above (sample 5):
Sequence	log fluorescence [z-score]
GACGGCTTCGGTTCCGGGACGTGCTAG	0.659
ATGAGACTGTCACATCCCTGGTGCTAG	-0.303
TTAGAATTCGGGTTTCGATTAGTGCTA	7.46
GACGAACTGAGTATCGAGTCGTGCTAG	0.509
TCACATATACACATCTTACTGTGCTAG	0.928
GTGCCTTTATATACCTGAATGTGCTAG	0.975
TTAGGTCTCGTTATCGGTTAGTGCTAG	3.22
TCATTTCTCCTTTGTAAACTGTGCTAG	2.94
